{"data": "Experimental data from different studies", "CNR1": "Cannabinoid receptor 1 (CNR1, Homo sapiens, UniProt P21554)", "note": "± gives the spread as reported.", "chain of UniProt P21554 (whole entry, unmodified, looked up)": "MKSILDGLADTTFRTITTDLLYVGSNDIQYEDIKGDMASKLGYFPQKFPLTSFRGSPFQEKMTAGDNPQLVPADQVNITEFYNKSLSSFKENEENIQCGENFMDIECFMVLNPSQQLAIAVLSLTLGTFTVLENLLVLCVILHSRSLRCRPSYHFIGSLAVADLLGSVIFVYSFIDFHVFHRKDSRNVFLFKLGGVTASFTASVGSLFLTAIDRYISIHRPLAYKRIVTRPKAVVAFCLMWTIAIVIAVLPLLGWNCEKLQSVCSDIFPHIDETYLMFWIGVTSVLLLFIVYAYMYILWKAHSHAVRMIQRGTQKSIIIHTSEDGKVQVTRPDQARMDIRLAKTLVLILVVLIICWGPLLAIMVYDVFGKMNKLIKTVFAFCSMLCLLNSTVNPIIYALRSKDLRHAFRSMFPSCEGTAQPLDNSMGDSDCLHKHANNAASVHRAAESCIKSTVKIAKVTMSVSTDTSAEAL"}
{"Structure (SMILES)": "CCCCCn1cc(C(=O)c2ccc3c(c2)CC(C)(C)C3)c2ccccc21", "target": "Cannabinoid receptor 1 (CNR1, Homo sapiens, UniProt P21554, L193I)", "assay": "Gαi1 engagement, agonist, BRET", "how to read": "reference: reference agonist at wild-type CB1", "quantity": "Emax", "result": "56.2 ± 4.3%"}
{"Structure (SMILES)": "CCCCCn1cc(C(=O)c2ccc(CC)c3ccccc23)c2ccccc21", "target": "CNR1", "assay": "binding, surface plasmon resonance", "setting": "50 µM", "quantity": "association constant", "result": "1.05e+12 M⁻¹"}
{"Structure (SMILES)": "CCOC(=O)[C@](CC)(CCCSCCOCCOCCNC(=O)c1ccc(-c2c3ccc(=N)c(S(=O)(=O)O)c-3oc3c(S(=O)(=O)O)c(N)ccc23)c(C(=O)O)c1)NC(=O)c1ccc(C2CC2)c(Cc2ccc(F)cc2)n1", "target": "CNR1", "assay": "cAMP, agonist", "quantity": "Emax", "result": "109%"}
{"Structure (SMILES)": "O=C(c1ccc2c(c1)c1ccccc1n2CC1CCOCC1)c1cccc2ccccc12", "target": "CNR1", "assay": "GTPγS binding, agonist", "setting": "cell membranes", "quantity": "Emax", "result": "216%"}
{"Structure (SMILES)": "CCCCCn1cc(C(=O)c2cccc3c2CC(C)(C)C3)c2ccccc21", "target": "Cannabinoid receptor 1 (CNR1, Homo sapiens, UniProt P21554, I267L/L193I/L359V)", "assay": "Gαi1 engagement, agonist, BRET", "how to read": "reference: reference agonist at wild-type CB1", "quantity": "Emax", "result": "140 ± 2.4%"}
{"Structure (SMILES)": "CC(=O)OCCCCCn1c2ccccc2c2cc(C(=O)c3cccc4ccccc34)ccc21", "target": "CNR1", "assay": "cAMP inhibition, agonist, BRET", "system": "HEK293 expressing CNR1", "setting": "added: forskolin", "how to read": "reference: forskolin alone", "quantity": "Emax", "result": "32.5%"}
{"Structure (SMILES)": "CCCCCn1cc(C(=O)c2ccc3ccccc3c2)c2ccccc21", "target": "Cannabinoid receptor 1 (CNR1, Homo sapiens, UniProt P21554, L359V)", "assay": "Gαi1 engagement, agonist, BRET", "how to read": "reference: reference agonist at wild-type CB1", "quantity": "Emax", "result": "102 ± 4.5%"}
{"Structure (SMILES)": "CCCCCn1cc(C(=O)c2ccc(OC)cc2)c2ccccc21", "target": "CNR1", "assay": "binding, surface plasmon resonance", "setting": "50 µM", "quantity": "association constant", "result": "3.63e+10 M⁻¹"}
{"Structure (SMILES)": "O=C(c1ccc2c(c1)c1ccccc1n2CCN1CCOCC1)c1cccc2ccccc12", "target": "CNR1", "assay": "cAMP inhibition, agonist, BRET", "system": "HEK293 expressing CNR1", "setting": "added: forskolin", "how to read": "reference: forskolin alone", "quantity": "Emax", "result": "42.4%"}
{"Structure (SMILES)": "CC1=C[C@H]2c3c(O)cc(CCc4ccccc4)cc3OC(C)(C)[C@H]2CC1", "target": "CNR1", "assay": "GTPγS binding, agonist, radiometric", "setting": "cell membranes", "quantity": "Emax", "result": "142%"}
{"Structure (SMILES)": "CCCCCn1c2ccccc2c2cc(C(=O)c3ccncc3)ccc21", "target": "CNR1", "assay": "GTPγS binding, agonist", "setting": "cell membranes", "quantity": "Emax", "result": "256%"}
{"Structure (SMILES)": "CC(=O)N/C(N)=N/C(=N\\S(=O)(=O)c1ccc(C(F)(F)F)cc1)N1C[C@H](c2ccccc2)C(c2ccc(Cl)cc2)=N1", "target": "CNR1", "assay": "binding, [3H]CP55,940 displacement", "system": "CHO-K1 cell membranes", "how to read": "reference: CB2 over CB1", "quantity": "selectivity ratio", "result": "> 2000 fold"}
